Measured values from different studies.
Lines come from different studies, so protocols differ. ± marks the error that the study gave.

`Cc1cc(-c2ccc(NC(=O)[C@H](CCCCNC(=O)CCN3C(=O)CC(SCC(=O)N[C@H](Cc4ccccc4)C(=O)N[C@H]4CSSC[C@@H](C(=O)N[C@H](C(=O)O)[C@@H](C)O)NC(=O)[C@H]([C@@H](C)O)NC(=O)[C@H](CCCCN)NC(=O)[C@@H](Cc5c[nH]c6ccccc56)NC(=O)[C@H](Cc5ccc(O)cc5)NC4=O)C3=O)NC(=O)CN3CCN(CC(=O)O)CCN(CC(=O)O)CCN(CC(=O)O)CC3)c(C)c2)ccc1N=Nc1ccc2c(S(=O)(=O)O)cc(S(=O)(=O)O)c(N)c2c1O` (stereo partly drawn) [yttrium-86 labelled] has a tumour uptake of 65.8 ± 7.59 %ID/g (PET; female athymic nude mice, AR-42J xenograft, AR-42J tumour; intravenous, 0.92 MBq, 4 nmol, 48 h).
With `Insulin human` the brain concentration was 0 pg/mg tissue (rat, dorsal cortex; intranasal, 20 µg per nostril, 360 min).
For `insulin aspart`, the AUC was 571 ± 85 ng·h/mL (LC-MS/MS; healthy humans, plasma; subcutaneous, 0.2 IU/kg, 0 to 8 h, after propensity score matching).
With `ksi D40N/M116A (Pseudomonas putida)` the pKa was 5.9 (UV-vis, measured: Tyr57; 25 °C).
The pKa of `CRYGD P23T (Homo sapiens)` is reported as 5.45 (NMR, measured: His22; 25 °C, numbering of the source).
Under “subjects with hypoglycaemia”, `insulin aspart` is recorded as 43.2% (obese type 2 diabetes patients; subcutaneous, 0.2 U/kg, glucose below 70 mg/dL).
`CSCC[C@H](NC(=O)[C@H](CC(C)C)NC(=O)[C@H](Cc1c[nH]cn1)NC(=O)CNC(=O)[C@@H](NC(=O)[C@H](C)NC(=O)[C@H](Cc1c[nH]c2ccccc12)NC(=O)[C@H](CCC(N)=O)NC(=O)CCCCCNC(=O)[C@H](CCC(=O)NCCCC[C@@H]1NC(=O)[C@@H](Cc2ccc(O)cc2)NC(=O)[C@H](CC(=O)O)NC(=O)CNC(=O)[C@H](CCCNC(=N)N)NC1=O)NC(=O)CN1CCN(CC(=O)O)CCN(CC(=O)O)CC1)C(C)C)C(N)=O` [copper-64 labelled] gave a tissue uptake of 0.96 ± 0.39 %ID/g (ICR SCID mouse, female, stomach; intravenous, 750 kBq, 4 h).
The CL/F of `insulin degludec` is reported as 0.355 mL/min/kg (human, end-stage renal disease; subcutaneous, 0.4 U/kg single dose, dosed after hemodialysis, geometric mean, non-dialysis profile).
`ksi Y16F/D40R/F56A/D103A (Pseudomonas putida)` has a pKa of greater than 10 (UV-vis, measured: Tyr57; 25 °C).
The contrast index of `ACEEQNPWARYLEWLFPTETLLLEL` is reported as 5 (ex vivo fluorescence; peptide, BALB/c mouse, 4T1 mammary tumour, tumour vs muscle; 4 h; reference: tumour over muscle).
With `teriparatide` the AUC% extrapolated was 10.9 ± 5.54% (ELISA; healthy women; sc, 20 µg single dose, reference product, arithmetic mean).
Under “absorption rate constant”, `pegcetacoplan` is recorded as -2.94 log(1/day) (population PK model; human, GA or nAMD, serum; intravitreal).
With `N=C(N)NCCC[C@@H]1NC(=O)[C@H](CSC2CC(=O)N(CCNC(=O)CN3CCN(CC(=O)O)CCN(CC(=O)O)CCN(CC(=O)O)CC3)C2=O)NC(=O)[C@H](CCCCN)NC(=O)[C@@H](Cc2ccc(O)cc2)NC(=O)[C@H](CC(=O)O)NC(=O)CNC1=O` (stereo partly drawn) [gallium-68 labelled] the elimination half-life was 30.8 ± 8.59 min (ICR mouse, female, blood; intravenous, 5 MBq, 1 to 120 min, two-compartment model).
For `ksi Y16F/D40N/D103N (Pseudomonas putida)`, the pKa was greater than 10 (UV-vis, measured: Tyr57; 25 °C).
With `CRYGD (Homo sapiens, UniProt P07320)` the pKa was 6.2 (NMR, measured: His121; 25 °C, numbering of the source).
For `COc1cccc2c1C(=O)c1c(O)c3c(c(O)c1C2=O)C[C@@](O)(C(=O)CO)C[C@@H]3O[C@H]1C[C@H](NC(=O)[C@@H]2CCCN2C(=O)CN)[C@H](O)[C@H](C)O1`, the Tmax was 5 min (mouse, E0771 tumour-bearing, liver; intravenous, 92 µmol/kg PhAc-ALGP-Dox).
The pKa of `PRL (Homo sapiens, UniProt P01236)` is reported as 5.82 (NMR, measured: His138; 35 °C, numbering of the source).
For `ksi D40L (Pseudomonas putida)`, the pKa was greater than 10 (UV-vis, measured: Tyr57; 25 °C).
With `CC(C)[C@H](NC(=O)[C@@H]1CCCN1C(=O)[C@H](CCCNC(=N)N)NC(=O)[C@H](CS)NC(=O)[C@H](Cc1c[nH]c2ccccc12)NC(=O)[C@H](CCCNC(=N)N)NC(=O)[C@@H](Cc1ccccc1)NC(=O)[C@H](Cc1c[nH]cn1)NC(=O)[C@H](CCC(=O)O)NC(=O)[C@H](CS)NC(=O)[C@H](CS)NC(=O)[C@H](CCCCN)NC(=O)[C@@H]1CC(=O)N[C@@H](CCCNC(=N)N)C(=O)N[C@@H](C)C(=O)N[C@@H](CC(=O)O)C(=O)N[C@H](Cc2ccc(O)cc2)C(=O)N1)C(N)=O` [technetium-99m labelled] the tissue uptake was 0.71 ± 0.25 %ID/g (C57 mice, skin; intravenous, 0.037 MBq, 2 h).
`insulin aspart` — result for “AUC of insulin increment”: 4340 ± 441 µU·min/mL (plasma; sc, 0.2 U/kg, 0-90 min).
`COc1cccc2c1C(=O)c1c(O)c3c(c(O)c1C2=O)C[C@@](O)(C(=O)CO)C[C@@H]3O[C@H]1C[C@H](NC(=O)[C@@H]2CCCN2C(=O)CNC(=O)[C@@H](N)CC(C)C)[C@H](O)[C@H](C)O1` gave a Tmax of 5 min (mouse, E0771 tumour-bearing, kidney; intravenous, 92 µmol/kg PhAc-ALGP-Dox).

For quick reference, copied from above:
`Cc1cc(-c2ccc(NC(=O)[C@H](CCCCNC(=O)CCN3C(=O)CC(SCC(=O)N[C@H](Cc4ccccc4)C(=O)N[C@H]4CSSC[C@@H](C(=O)N[C@H](C(=O)O)[C@@H](C)O)NC(=O)[C@H]([C@@H](C)O)NC(=O)[C@H](CCCCN)NC(=O)[C@@H](Cc5c[nH]c6ccccc56)NC(=O)[C@H](Cc5ccc(O)cc5)NC4=O)C3=O)NC(=O)CN3CCN(CC(=O)O)CCN(CC(=O)O)CCN(CC(=O)O)CC3)c(C)c2)ccc1N=Nc1ccc2c(S(=O)(=O)O)cc(S(=O)(=O)O)c(N)c2c1O` (stereo partly drawn) [yttrium-86 labelled] has a tumour uptake of 65.8 ± 7.59 %ID/g (PET; female athymic nude mice, AR-42J xenograft, AR-42J tumour; intravenous, 0.92 MBq, 4 nmol, 48 h).
With `Insulin human` the brain concentration was 0 pg/mg tissue (rat, dorsal cortex; intranasal, 20 µg per nostril, 360 min).
